Measurements collected from several papers.
Compare with care: the assays were run in different laboratories. ± marks the error that the study gave.

Molecule	target or system	assay	test system	conditions	endpoint	value
CC[C@H](C)[C@H](NC(=O)[C@H](CC(C)C)NC(=O)[C@H](Cc1c[nH]c2ccccc12)NC(=O)[C@H](CCC(N)=O)NC(=O)[C@@H](NC(=O)[C@H](Cc1ccccc1)NC(=O)[C@H](C)NC(=O)[C@H](CCCCNC(=O)COCCOCCNC(=O)COCCOCCNC(=O)CC[C@H](NC(=O)CCCCCCCCCCCCCCCCCCC(=O)O)C(=O)O)NC(=O)[C@H](CCC(N)=O)NC(=O)[C@H](C)NC(=O)[C@@H](NC(=O)[C@H](CCCCN)NC(=O)[C@H](CC(=O)O)NC(=O)[C@H](CC(C)C)NC(=O)C(C)(C)NC(=O)[C@@H](NC(=O)[C@H](CO)NC(=O)[C@H](Cc1ccc(O)cc1)NC(=O)[C@H](CC(=O)O)NC(=O)[C@H](CO)NC(=O)[C@@H](NC(=O)[C@H](Cc1ccccc1)NC(=O)[C@@H](NC(=O)CNC(=O)[C@H](CCC(=O)O)NC(=O)C(C)(C)NC(=O)[C@@H](N)Cc1ccc(O)cc1)[C@@H](C)O)[C@@H](C)O)[C@@H](C)CC)[C@@H](C)CC)C(C)C)C(=O)N[C@@H](C)C(=O)NCC(=O)NCC(=O)N1CCC[C@H]1C(=O)N[C@@H](CO)C(=O)N[C@@H](CO)C(=O)NCC(=O)N[C@@H](C)C(=O)N1CCC[C@H]1C(=O)N1CCC[C@H]1C(=O)N1CCC[C@H]1C(=O)N[C@@H](CO)C(N)=O			healthy subjects, single ascending dose	1.0 mg, day 29	serum amylase	66.2 ± 8.2 U/L
RLFARTRSMWSFNPE	human CD4 T cells	AIM	peptide		responding donors	8%
Nc1ncnc2c([C@@H]3N[C@H](CO)[C@@H](O)[C@H]3O)c[nH]c12	Marburg virus	antibody staining	HeLa, Musoke	200 µM	antigen-positive cells	0.3%
CC(CC(=O)C[C@@H](C)[C@H]1CC(=O)[C@@]2(C)C3=C(C(=O)C[C@]12C)[C@@]1(C)CC[C@H](O)C(C)(C)[C@@H]1C[C@@H]3O)C(=O)O (some centres unmarked)	Replicase polyprotein 1ab, main protease (rep, Severe acute respiratory syndrome coronavirus 2, UniProt P0DTD1)	reporter gene (mKate2), inhibitor		20 µM	inhibition	-0.237%
RPLLESELVIGAVIL	human CD4 T cells	AIM	peptide		responding donors	8%

Excerpt of the above:
Molecule	target or system	assay	test system	conditions	endpoint	value
RPLLESELVIGAVIL	human CD4 T cells	AIM	peptide		responding donors	8%
